# Experimental data of several laboratories.
# A part holds a random share of what one study measured. Substitutions count along the parent as printed.

# Block 1
# Target: Centromere-binding protein 1, full length, His-tagged (CBF1, Saccharomyces cerevisiae, UniProt P17106, residues 1-351)
# UniProt P17106, sequence (whole entry, looked up): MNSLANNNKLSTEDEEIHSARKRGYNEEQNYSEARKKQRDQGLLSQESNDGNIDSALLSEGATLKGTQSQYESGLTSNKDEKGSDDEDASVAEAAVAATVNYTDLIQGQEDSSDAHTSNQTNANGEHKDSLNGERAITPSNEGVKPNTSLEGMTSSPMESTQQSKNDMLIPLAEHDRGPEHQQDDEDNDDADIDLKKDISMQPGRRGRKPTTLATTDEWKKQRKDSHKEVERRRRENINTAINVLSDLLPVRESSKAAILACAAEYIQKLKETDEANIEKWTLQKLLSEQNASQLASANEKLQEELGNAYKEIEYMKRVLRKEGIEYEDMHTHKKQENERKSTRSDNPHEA
# Method: competition protein-binding microarray
# Molecule type: double-stranded DNA, one strand shown
# Matrix: in vitro
# Tested at: 2 µM
# Setting: whole 60-bp probe, lowest competitor level
# Together with: Pho4 competitor, 0.05 µM
# Direction: higher = stronger binding
# Constant ends, left off below: … GTCTTGATTCGCTTGACGCTGCTG
Oligonucleotide,fluorescence intensity
TGCGATTCAGGTCTCAACGTGCAAAGTGCAGGAGCA,74.3 a.u.
TGAAGAAGGGGTAGACTCGGAAGCGTTCCAGCGTCT,61 a.u.
AAACCAAGGGAAGAAAACGTGAATACGGAGAAACTT,130 a.u.
TCTATCCTATTTTAAAACGTGAATATTCCAAGATGA,155 a.u.
ATGCGATTCGGCCATCACGGGAGAGTCGACTAGTTC,98.8 a.u.
TTGTTCATGAGTGAACATGTGGAAGACGAAAAACCA,118 a.u.
GTCTTGTCTCATTGGCCTGTGGGTGTCCCCACTTCA,67.9 a.u.
CGTCCTAGCGATTGACAAGTGGGTGCCATGAGGAAG,74.7 a.u.
TTTTTTCAGATGGAGACTGTGATGGGGTAGCGCTTG,64.9 a.u.
CGTCCTAGCGATTGAATCGTGGGTGCCATGAGGAAG,73.3 a.u.
CTTGCCGAGATGGTGTTCGTGACGGAAATTGTGGAA,90.3 a.u.
TATCTAATCATTTTGCACGTCAAGATTCTCCTTAAC,77.6 a.u.
GCCTCCATATTACTCACCGTGCCAGACCCATTGTCG,63.6 a.u.
CAGCGAACCAAAGGCACCGTGAGTAGAGGTATGAGA,55.5 a.u.
CTTGACTATCCAGATCGTGTGAGAGGGCAACTGTGT,71.8 a.u.
TTTCTTATGAAAATCAGTGTGACAGTAATGAGACTT,92.4 a.u.
AAAGCGGTAATTTGTGGAGTGGGTGCAGATATCTAT,77.8 a.u.
CGTCCTAGTGATTGCCTTGTGGGTGCCATGAGGAAG,72.2 a.u.
CTTTCCCGATCTTGTCTAGTGGGTGTAGCACATTTG,68.8 a.u.
CTAACGAAGGTTTGGCATGTGGGTGACAAGCCAAGT,81.6 a.u.
CGGGGTTAAGTTTGCGATGTGGGTGGCTTGCAGCAG,59.8 a.u.
TTGCCATGGCGATCGCGCGTGGGTATGGTCTTTCCC,74.2 a.u.
CTTCTGTAAATTTGTGAGGTGGGTGGACGCGCCCCG,113 a.u.
CTTCTGTAAATTTGGCCGGTGGGTGGACGCGCCCCG,59.2 a.u.
TGCGCAACAACTTGTCACGGTACTTTATGTCTAGAA,201 a.u.

# Block 2
# Target: CCND2, cyclin fold, Cln2 fusion (human)
# Method: yeast growth competition, sequencing
# Matrix: yeast
# Setting: weak parent motif
# Relative to: not given
# Direction: higher = stronger binding
# Starting sequence: PKN2 docking peptide (human); DSTVTKLDFDLEP
Substitution,normalised enrichment score
F9A,-0.00435
L7A,-0.0592
V4A,0.0442
E12A,0.0246
D8A,-0.0997
K6A,0.0575
L11A,0.058

# Block 3
# Target: RNA binding protein fox-1 homolog 2, RRM domain, GST-SBP tag (RBFOX2, Homo sapiens, UniProt O43251-10, residues 100-194)
# Method: RNA Bind-n-Seq
# Molecule type: RNA
# Matrix: in vitro
# Tested at: 365 nM
# Setting: natural RNA segment, single round, ends assumed
# Relative to: no-protein control
# Direction: higher = stronger binding
# Constant ends, left off below: GGGAGUUCUACAGUCCGACGAUC … UGGAAUUCUCGGGUGCCAA
# Construct (chain): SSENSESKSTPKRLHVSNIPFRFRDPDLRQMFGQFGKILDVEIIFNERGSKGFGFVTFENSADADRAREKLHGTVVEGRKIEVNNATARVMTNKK
Oligonucleotide,RBNS enrichment (R)
AAGGAAAAAAAAAUUCACACCUGGCUUUCAGGUAACUGACUUUGGAUUCUUACAAGCAAAGGUCAUUGUGUUUUUUCUUGAGUAGAUACCUAAUAAAUUUUGCUUGAAAG,0.519
AUAGGACCGUACUCCUGGACACCAUUUCCACAUGUGGAUUUCUGGUUGCACCAAGAUGACAAGCAAAUACUAGAGAAUCUUUCCACUUCGCCUCUGGCUGAGCCACCCCA,0.727
CUGUAGUCUUAACUCUAACCCUCUGGUGCUGCUCUCUGAGCAGCAGUAUUUACAAUAACCGAGCUAUCACGGCUAACUCUCGCAUGUCAGGAAACACAGACCUUAGCGAU,4.64
CUGUUUAUCUACUGCUUUGAGCCCUCCUAAGUUAACCUGUGCCUCAUUUGUAAAACCACCAGCAUCAGGAGUAAGGGGGAGGCCAGAGGGCUCAGAUGGACACAGAAUUC,0.735
AGAAUGUCUCCCAGCCUCAGUUUCCCUAUUUGUAAAAUGGAAAUAAUGGUAGCUACCUCAAACCUCAUUACGAAUUCAAUGAGUUAAACUUGAAAAGACUUAUUACAGUA,0.418
GAUGGAAGCCUCCCAGGCGCGCGAGGCUUCCCGGGCGCUCUGAGGCUUCUUUCUCCUCGCCCGCUCCCCUGGGCUCAGCUCGGACGCUGCAGUUAUUGACCUCCCGGUCC,0.39
UAAGUAUGAAUACACAGUGUGGCAGUGUUGUGGUUUUUGUUGUUGUUUUUCCUCUCCUUUUGAGAAUUUUCUUUUGUAAAAGAAAAAUAUUUUUUAAACCGAAAUCUGUG,1.96
ACACAGAUUUGAGUCAGAACUGGAAAGUGUCCCCCACCCCCACCACCCUCGAGCGGGGUUCCCCUCAUUGUACAGAUGGGGCAGGACCCAGCACGCUGCUGGCAGAGAUG,0.367
GAAGGACCGGCUUUAUCUCAUGAUGCCUUUCUGAGACUUGACCGUUAUGAGCUGAACAUAAAAAGUUUUGGCUGGCUUAUGUGAUUGAGGCCAUUAACACUGAUAAGUAU,0.498
CACCCAAGCUCUGUUCAUGUUUUUGUGAAUUCUAGGCUGGUGCUGCACUGAAAUAGAGCAGUAAGCUUGUGAUAAAGGCCAAUUCCAGGUAGCUCUUGAAGGUGAUAGCC,0.404
UUUGAGCAGCCAUAUUAUAAAAUGGAUCAUCAGAGCUGAGUGACAACACGAGAGUGGUACUGGUUUCAUGUGCGAGGACUUCCAUGGACUGAACAUGGAUGCCGGAGCAG,0.26
UCAUCGAAUGGAAACAUGUUCUUGCAUGUGGAUGUGUGUUUCCCAGGCAGAGGGUCCUGCGCCCCCCAGCACUCCCCUGCCCUCUCCCACACCUCAGGUCCAGCGCACAC,15

# Block 4
# Target: Histone acetyltransferase KAT6A, both winged helices, GST fusion (KAT6A, Homo sapiens, UniProt Q92794, residues 1-181)
# Method: protein binding microarray
# Molecule type: double-stranded DNA, one strand shown
# Matrix: in vitro
# Tested at: not given
# Setting: 8-mer, flanks averaged, mean of 2 arrays, mostly near background
# Relative to: not given
# Direction: higher = stronger binding
# Target sequence (chain): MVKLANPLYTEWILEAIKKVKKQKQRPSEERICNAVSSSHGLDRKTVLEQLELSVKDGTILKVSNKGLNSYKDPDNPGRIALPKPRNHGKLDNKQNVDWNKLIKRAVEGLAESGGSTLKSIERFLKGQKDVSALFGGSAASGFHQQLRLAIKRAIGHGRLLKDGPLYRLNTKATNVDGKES
Oligonucleotide,E-score
CAAAGAAA,-0.146
CTCTACCC,-0.271
ACGGTTTA,0.139
CTGGCCGC,0.119
GTTTCGAA,0.17
AGGCGAGC,-0.0833
CCATAGTA,-0.157
CCACTTTC,-0.105
AAGGCGGT,0.0355
ATCACTTA,-0.106
CATTCCCC,-0.0597
GGAATTGA,-0.0791
ATCGGGCG,0.248
CGGCCGCC,0.381
TAGCGATA,0.0784
TCTCTTCA,-0.0581
ATCAAAAA,-0.143

# Block 5
# Target: Prothrombin, mature alpha-thrombin (F2, Homo sapiens, UniProt P00734)
# Method: aptamer microarray, sandwich
# Molecule type: DNA with 2'F-ANA
# Matrix: in vitro
# Tested at: 200 nM
# Setting: whole 15-mer aptamer, many near background
# Together with: Cy3 exosite-II aptamer, 400 nM
# Direction: higher = stronger binding
# Oligonucleotide: GGTTGGTGTGGTTGG
Modification,mean fluorescence intensity [a.u.]
2'F-ANA at 2 3 8 10 11 12 13 14,264
2'F-ANA at 1 4 5 6 12 13 15,73.7
2'F-ANA at 2 4 5 6 7 8 11 15,77.1
2'F-ANA at 1 3 4 5 7 8 10 11 12 13,52.2
2'F-ANA at 1 2 3 4 8 9 10 11 13,54
2'F-ANA at 1 2 3 4 5 6 8 12 15,116
2'F-ANA at 5 6 8 9 11 13,188
2'F-ANA at 2 3 6 7 8 9 10 14 15,274
2'F-ANA at 1 2 6 7 10,51.3
2'F-ANA at 2 5 9 10 11,49.3
2'F-ANA at 1 3 6 7 8 10 13 14,69.4
2'F-ANA at 3 6 7 12 14 15,640
2'F-ANA at 2 3 4 5 7 10 13,122
2'F-ANA at 7 8 9 10 11 12 13 14,116
2'F-ANA at 1 4 6 7 8 9 10 12 13 14,46.2
2'F-ANA at 2 3 5 6 10 11 15,47.6
2'F-ANA at 2 5 9 10 12 14 15,45.5
2'F-ANA at 1 3 4 5 7 8 10 11 15,53.8
2'F-ANA at 1 2 3 4 5 7 8 11 12 14 15,57.1
2'F-ANA at 1 2 3 4 5 6 7 10 15,48.4

# Block 6
# Target: Protein C-ets-1 (ETS1, Homo sapiens, UniProt P14921, residues 1-441, full length assumed)
# Method: protein-binding microarray
# Molecule type: double-stranded DNA, one strand shown
# Matrix: in vitro
# Tested at: not given
# Setting: k-mer, scored over probes, only values ≥0.25
# Direction: higher = stronger binding
# Construct (chain): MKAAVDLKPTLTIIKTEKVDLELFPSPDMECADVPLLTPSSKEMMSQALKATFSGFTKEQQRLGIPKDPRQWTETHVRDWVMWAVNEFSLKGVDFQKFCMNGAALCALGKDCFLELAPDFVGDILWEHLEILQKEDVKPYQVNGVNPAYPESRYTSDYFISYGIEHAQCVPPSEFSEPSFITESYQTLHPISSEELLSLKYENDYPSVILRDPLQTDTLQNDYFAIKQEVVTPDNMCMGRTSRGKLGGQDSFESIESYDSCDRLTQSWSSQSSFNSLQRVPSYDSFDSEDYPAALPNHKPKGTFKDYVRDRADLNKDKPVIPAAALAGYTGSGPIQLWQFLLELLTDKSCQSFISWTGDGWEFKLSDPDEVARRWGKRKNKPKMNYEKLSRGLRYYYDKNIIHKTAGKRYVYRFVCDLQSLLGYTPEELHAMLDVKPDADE
Oligonucleotide,E-score
CCGGACAG,0.362
ATCCGTAG,0.277
TAACGGAA,0.395
CTGGAAAC,0.296
ACATCCCA,0.251
CGAATCCG,0.323
TAAAGGGA,0.256
GCCGGGGA,0.314
CAGCTTCC,0.405
ATCCGCGG,0.267
ATCCTTCC,0.41
GCTTCCCC,0.347
ATCCGTTC,0.409
CAAAGGAA,0.273
CGGAATTC,0.334
AGGAAATC,0.437
ATACACCC,0.256
CCAACCGG,0.279
CTTCCGCC,0.482
AACTTCCC,0.422
GCCGGAAC,0.453
CGGAAAGC,0.37
ATCCGGCG,0.465
ATCCCCAC,0.251

# Block 7
# Target: ABI1, truncated, D143A, DHFR fusion (Arabidopsis thaliana)
# Method: DHFR PCA, deep sequencing
# Matrix: yeast
# Setting: methotrexate growth selection, single substitutions
# Together with: (+)-ABA 710 µM
# Relative to: wild-type fitted maximum
# Direction: higher = stronger binding
# Starting sequence: PYL1, truncated, DHFR fusion (Arabidopsis thaliana); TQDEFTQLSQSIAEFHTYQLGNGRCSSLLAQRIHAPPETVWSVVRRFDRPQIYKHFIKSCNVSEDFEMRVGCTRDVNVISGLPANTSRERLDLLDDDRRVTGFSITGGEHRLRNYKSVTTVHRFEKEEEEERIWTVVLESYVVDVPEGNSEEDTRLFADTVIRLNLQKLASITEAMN; partner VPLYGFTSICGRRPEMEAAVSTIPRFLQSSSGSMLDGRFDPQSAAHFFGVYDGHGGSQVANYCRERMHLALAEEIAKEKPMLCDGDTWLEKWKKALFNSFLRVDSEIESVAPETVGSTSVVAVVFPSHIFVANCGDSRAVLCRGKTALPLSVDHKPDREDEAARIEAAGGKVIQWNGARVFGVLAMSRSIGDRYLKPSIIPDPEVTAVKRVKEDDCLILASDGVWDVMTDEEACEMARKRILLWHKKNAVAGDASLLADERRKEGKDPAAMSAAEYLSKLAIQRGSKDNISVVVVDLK
Substitution,relative binding score [%]
H122Q,85
F103R,-9.38
F66T,100
Y53P,19.5
S11H,94
S171L,95.6
S87I,48.2
H55M,105
E109W,81
S117C,78.8
T120Q,74.6
Q31I,74.7

# Repeated from above (block 1):
Oligonucleotide,fluorescence intensity
CTTGCCGAGATGGTGTTCGTGACGGAAATTGTGGAA,90.3 a.u.
TGCGATTCAGGTCTCAACGTGCAAAGTGCAGGAGCA,74.3 a.u.
GCCTCCATATTACTCACCGTGCCAGACCCATTGTCG,63.6 a.u.
CGTCCTAGTGATTGCCTTGTGGGTGCCATGAGGAAG,72.2 a.u.
TTTCTTATGAAAATCAGTGTGACAGTAATGAGACTT,92.4 a.u.
TTTTTTCAGATGGAGACTGTGATGGGGTAGCGCTTG,64.9 a.u.
TATCTAATCATTTTGCACGTCAAGATTCTCCTTAAC,77.6 a.u.
CTTTCCCGATCTTGTCTAGTGGGTGTAGCACATTTG,68.8 a.u.
